Results gathered from unrelated publications.
Lines come from different studies, so protocols differ. Numbers after ± are the reported error.
Target: Sodium-dependent serotonin transporter (Slc6a4, Rattus norvegicus, UniProt P31652)
Sequence of UniProt P31652 (whole entry, looked up): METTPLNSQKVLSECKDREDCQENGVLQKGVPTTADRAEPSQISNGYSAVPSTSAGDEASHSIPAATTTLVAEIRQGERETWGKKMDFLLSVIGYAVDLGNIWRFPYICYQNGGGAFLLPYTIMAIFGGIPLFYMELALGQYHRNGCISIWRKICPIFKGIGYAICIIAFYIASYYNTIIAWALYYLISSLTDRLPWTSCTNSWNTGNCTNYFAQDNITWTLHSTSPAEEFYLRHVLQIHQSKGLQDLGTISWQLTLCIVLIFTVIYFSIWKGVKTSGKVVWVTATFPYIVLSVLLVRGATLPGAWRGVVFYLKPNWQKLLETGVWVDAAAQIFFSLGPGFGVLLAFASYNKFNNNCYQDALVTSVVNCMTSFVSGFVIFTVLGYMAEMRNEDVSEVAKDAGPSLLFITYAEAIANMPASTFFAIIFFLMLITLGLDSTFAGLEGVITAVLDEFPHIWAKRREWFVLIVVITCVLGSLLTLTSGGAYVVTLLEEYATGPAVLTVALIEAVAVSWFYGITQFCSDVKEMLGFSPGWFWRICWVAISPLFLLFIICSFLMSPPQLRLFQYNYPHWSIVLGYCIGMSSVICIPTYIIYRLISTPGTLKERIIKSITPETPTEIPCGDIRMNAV

The EC50 of CNC(C)Cc1ccc2ccoc2c1 (stereo not drawn) is reported as 33 ± 4 nM (transporter-mediated release, substrate; rat brain synaptosomes; 5 min, together with: [3H]5-HT).
The IC50 of CCCN(CCC)CCc1c[nH]c2ccc(OC)cc12 is reported as 1030 ± 140 nM (inhibitor).
The EC50 of C[C@@H]1N=C(N)O[C@@H]1c1ccccc1 (racemic) is reported as 53.2 ± 6.8 nM (substrate release, releaser, [3H]5-HT release; rat brain synaptosomes; together with: [3H]5-HT 5 nM).
For CNC(C)C(=O)c1ccccc1 (stereo not drawn), the EC50 was 5850 nM (substrate release, releaser; rat brain synaptosomes; together with: [3H]5-HT).
With CCN(CC)c1ccc2c(-c3ccc(S(=O)(=O)NCCCCCC(=O)NCCN4C5CCC4[C@@H](C(=O)OC)[C@@H](c4ccc(Cl)c(Cl)c4)C5)cc3S(=O)(=O)[O-])c3ccc(=[N+](CC)CC)cc-3oc2c1 (stereo partly drawn) the Ki was 16 nM (ligand displacement, radioligand; cell membranes).
COC(=O)[C@H]1[C@@H](c2ccc(SC(C)C)cc2)C[C@@H]2CC[C@H]1N2C gave a Ki of 23 ± 2 nM.
CC(C)N(C)CCc1c[nH]c2ccccc12 has an IC50 of greater than 10000 nM (inhibitor).
For Cc1ccc([C@H]2OC(N)=N[C@H]2C)cc1 (relative stereo), the EC50 was 17.7 ± 2.3 nM (substrate release, releaser; rat brain synaptosomes; together with: [3H]5-HT 5 nM).
CNC(C)C(=O)c1cccc(Cl)c1 (stereo not drawn) has an EC50 of 211 nM (substrate release, releaser; rat brain synaptosomes; together with: [3H]5-HT).
C[C@@H]1N=C(N)O[C@H]1c1ccc2c(c1)OCO2 (racemic) has an EC50 of 73.4 ± 12 nM (substrate release, releaser; rat brain synaptosomes; together with: [3H]5-HT 5 nM).
For COC(=O)[C@H]1[C@@H](c2ccc(Cl)c(Cl)c2)C[C@@H]2CC[C@H]1N2C, the Ki was 10 nM (ligand displacement, radioligand; cell membranes).
With CCCC(NCC)C(=O)c1ccc2c(c1)OCO2 (stereo not drawn) the IC50 was 383 nM (transporter uptake, inhibitor, radiometric).
With CNC(C)Cc1ccc2c(c1)OCO2 (single isomer, unassigned; (+)) the EC50 was 85 ± 13.3 nM (substrate release, releaser; rat brain synaptosomes; together with: [3H]5-HT 5 nM).
With CCC[C@@H](C(=O)c1ccccc1)N1CCCC1 the IC50 was greater than 10000 nM (transporter uptake, inhibitor, radiometric).
The IC50 of CCN(CC)CCc1c[nH]c2ccc(OC)cc12 is reported as 2410 ± 222 nM (inhibitor).
The Ki of COC(=O)[C@H]1[C@@H](c2ccc(SC)cc2)C[C@@H]2CC[C@H]1N2C is reported as 0.7 ± 0.2 nM.
CNCCc1c[nH]c2ccc(OC)cc12 gave an EC50 of 1110 ± 700 nM.
For COC(=O)[C@H]1C(c2ccc(I)cc2)C[C@@H]2CC[C@H]1N2C (stereo partly drawn), the IC50 was 1.11 nM (serotonin reuptake, inhibitor; rat brain synaptosomes).
